# Measurements pooled from the literature.
# Parts stem from different laboratories: compare values within a part only. Substitutions count along the parent as printed.

# Sample 1 — technique: protein-binding microarray; form: double-stranded DNA, one strand shown; matrix: in vitro; tested at: 2200 nM top; notes: 60-bp whole probe; added: salmon DNA 0.4 mg/ml; relative to: random background probes; reading: higher = stronger binding; shared flanks, not repeated: GCCTAGCAC … GTCTTGATTCGCTTGACGCTGCTG
# Target: Interferon regulatory factor 7, full length, phosphomimetic (IRF7, Homo sapiens, UniProt Q92985, residues 1-503, S471D/S472D/S475D/S476D/S477D/S483D/S484D/S487D)
# Sequence of UniProt Q92985 (whole entry, unmodified, looked up): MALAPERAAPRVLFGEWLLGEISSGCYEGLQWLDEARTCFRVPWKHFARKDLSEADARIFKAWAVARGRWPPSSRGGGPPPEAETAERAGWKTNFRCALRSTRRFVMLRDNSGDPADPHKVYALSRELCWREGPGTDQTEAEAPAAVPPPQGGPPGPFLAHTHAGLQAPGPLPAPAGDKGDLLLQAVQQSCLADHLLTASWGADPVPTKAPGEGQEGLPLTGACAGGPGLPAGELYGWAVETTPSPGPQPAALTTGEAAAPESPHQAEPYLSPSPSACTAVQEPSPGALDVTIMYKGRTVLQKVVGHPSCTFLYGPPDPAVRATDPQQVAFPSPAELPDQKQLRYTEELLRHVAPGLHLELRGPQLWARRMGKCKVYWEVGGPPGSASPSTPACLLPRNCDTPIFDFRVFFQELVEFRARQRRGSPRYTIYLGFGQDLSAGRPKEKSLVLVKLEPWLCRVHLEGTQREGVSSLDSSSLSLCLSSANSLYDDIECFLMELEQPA
Oligonucleotide,fitted relative affinity [z-score]
TCAAGTTTCTCAACCACACTGTGCTAG,0.995
TTAGAACTGGGGTATGGATTAGTGCTA,-0.0396
GACGGTCTCCTTATCCTGATGTGCTAG,1.13
TCAATGATCTCTCTGGGACTGTGCTAG,0.118
TTTTCTCTTATTCTAACAGCGTGCTAG,2.51
GTCGGTTTCGGTTCCGGGACGTGCTAG,12.9
TCTTTTTTTCTTTTATTAGTGTGCTAG,3.02
CTTTAGAGCAAGAACAGCCTGTGCTAG,-0.729
TTTGGTCTCGGTCTCGGTTAGTGCTAG,1.52
GTCGGTTTCCTTATCCTGACGTGCTAG,3.89
GACGCTATCGGTCTCGGGACGTGCTAG,0.387
TCAAAGCAAAAATGATTACTGTGCTAG,-0.408
GACGGTTTCCTTTTCTTGACGTGCTAG,4.64
GACGGTTTCGGGTTACGGGACGTGCTA,11.9
TCATTTCAGTTTCTCTTACTGTGCTAG,4.18
TCAGATTTCGATTACAAACTGTGCTAG,2.67
TCATCTCTGGTTCTTGCACTGTGCTAG,1.66
TTAGAACTGGGATATCGATTAGTGCTA,-0.373
TTATATTTCGGGACTGGATTAGTGCTA,0.936
GACGGACTGCATCTCCTGACGTGCTAG,0.392
GACGGACTGGGGTTTCTGGACGTGCTA,-0.555
TTAGTTATCGGTCTCGGTTAGTGCTAG,1.6
TTAGGACTGGGGTTTCGGCTAGTGCTA,0.302
GGCTGTTTGATCTTGATCCTGTGCTAG,0.454
TTAGATTTCAGTTCCGATTTGTGCTAG,3.21

# Sample 2 — technique: RNA Bind-n-Seq; form: RNA; matrix: in vitro; tested at: 365 nM; relative to: no-protein control; reading: higher = stronger binding
# Target: RNA binding protein fox-1 homolog 2, RRM domain, GST-SBP tag (RBFOX2, Homo sapiens, UniProt O43251-10, residues 100-194)
# Notes: natural RNA segment, single round, ends assumed
# Target sequence (chain): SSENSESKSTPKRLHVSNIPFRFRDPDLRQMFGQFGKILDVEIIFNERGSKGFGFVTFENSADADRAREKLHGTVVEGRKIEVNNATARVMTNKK
Oligonucleotide,RBNS enrichment (R)
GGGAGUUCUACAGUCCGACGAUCGACAGUCCAGAGAUGAGCAGAAAUCUUAAAUUCCUUCCUGAUCCAGCCUCCACAUGUGGCCUGCCCCUUGCCCCAGCAUCUUUCCAGAACCCCUGGACUUGCCAGGUGCCUGGAAUUCUCGGGUGCCAA,0.786
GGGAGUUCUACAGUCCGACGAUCGCCGCCCAUCCUCGGGGACUGUGAGUGUCCUUGUCUUAGUCAAAGCACAUCUCCUACCAAAAUUGCUCCCAAGAUGGAGGGUGAGACCUCAGUGCUAGGUUGACAGGUGGUGGAAUUCUCGGGUGCCAA,0.516
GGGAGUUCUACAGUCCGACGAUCCCUGCUUUUUGUUUUGGAUAGUACCUUGUCUGUAUAAGAAGCUGGCCUUUCCAUAGAGAGGCCCUGGAGUCUAAAAUUAUGAGAACAAUUAAUUUAUUUGUGUCUUCUAUUGGAAUUCUCGGGUGCCAA,0.303
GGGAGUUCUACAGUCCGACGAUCCUUUUUGAAGAUUAGGUGGUUUUGCUCUUUAACAUUUUUGUGACUUUGGUUUAUUUUCUUCCCAUGUCGCCCAGAGAUUACUUGUGUGUGUGCCAUUCUGCUCAAAACUAUGGAAUUCUCGGGUGCCAA,0.33
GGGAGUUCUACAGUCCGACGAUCUUGGGACCACCCGUAUUUCAGUAGGACCUGGGUAGGGAUUGGAAGUACUUGGCAGGGCAGCAGCAAUCUUGCUGUGUUUGAUAUAACAUGCAUCCUUGGGCAGGUUGCCCUGGAAUUCUCGGGUGCCAA,0.531
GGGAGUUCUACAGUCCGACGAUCACUUCACUGUCCCUGAUAUCUGGAGGUGAGAUGGCAGAGAGGGGCACCAGUGGAGCCAGGAUUGGGGCCUAGGGAAGCCCCCAAUGGUUCUGGAGGCAGGGAUAAGUGUGUGGAAUUCUCGGGUGCCAA,0.814
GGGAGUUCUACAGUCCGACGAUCAAUACAUAUCUAUGUCUCAUAAAAAUUAGAAUGUACUAUUUUAAAAUAAUAUGUGUAAAUUGAAAUUUUUUUCAUUUUUAAGUUAUCAGGCACUUUUCAUGCUGUUUAAAUGGAAUUCUCGGGUGCCAA,1.46
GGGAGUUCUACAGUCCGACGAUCGGUUCUUCCUGUGUGGUCCAGAACCACGAGCCUGGUAAAGGAACUAUGCAAACACAGGCCCUGACCUCCCCAUGUCUGUUCCUGGUCCUCACAGCCCGACACGCCCUGCUUGGAAUUCUCGGGUGCCAA,0.449
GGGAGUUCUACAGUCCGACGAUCCUCUCUUGGGGUUCCACACCCAUUUCUUGCCAGCAGCUCCCAGUGAUGCUGUGUUUUGUAUGUUAGUUACACAACUUUGUGUCCUGCCAGGUCAUGUUCUAAAAUUAAGGUGGAAUUCUCGGGUGCCAA,0.581
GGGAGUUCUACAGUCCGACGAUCGUUACACUGUUAGAACACUAUUUUCAGAAUCUGAAUGUAAUUUGUGUAAUAAAGUGUUUUCAGAGCAUUAGCUGUCAGUGUAUUUUCCAGUUUUUGCGUAUUUGCAGAUUUGGAAUUCUCGGGUGCCAA,0.58
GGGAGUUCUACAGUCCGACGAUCUAAUGCUGCUGAUAAAGACGUACCCGAGACUGGGAAGAAAAAGAGGUUUACUUGGACUUACAGUUCCACAUGGCUGGGGAGGCCUCAGAAUCAUGGCGGGAGGUGAAAGGUGGAAUUCUCGGGUGCCAA,0.751
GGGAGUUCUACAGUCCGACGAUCCAGCCCCUGGAGCCAACAUUUUGGUUGUGGGAGGCUGACCUCUUGCCUGCCUCCUUGUGUGGACAGAGUGGUGAAGACGUAUUCCUCACCUCCUUGCCUUUCAGUAAAUGUGGAAUUCUCGGGUGCCAA,0.359

# Sample 3 — technique: RNA Bind-n-Seq; form: RNA; matrix: in vitro; tested at: not given; relative to: input RNA pool; reading: higher = stronger binding
# Target: RING finger protein unkempt homolog, zinc fingers 1-6, GST-SBP tag (UNK, Homo sapiens, UniProt Q9C0B0, residues 30-357)
# Sequence of UniProt Q9C0B0 (30-357, looked up): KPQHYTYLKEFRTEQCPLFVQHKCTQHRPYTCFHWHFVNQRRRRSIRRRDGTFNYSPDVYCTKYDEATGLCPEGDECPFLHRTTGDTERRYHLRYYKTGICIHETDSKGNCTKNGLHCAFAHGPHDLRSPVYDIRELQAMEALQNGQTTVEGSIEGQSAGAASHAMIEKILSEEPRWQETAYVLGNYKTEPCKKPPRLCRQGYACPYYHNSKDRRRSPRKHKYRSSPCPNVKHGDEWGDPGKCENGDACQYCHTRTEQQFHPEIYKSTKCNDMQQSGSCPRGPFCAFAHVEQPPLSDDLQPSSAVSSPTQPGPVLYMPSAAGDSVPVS
# Notes: RNA with constant flanks, human-mouse chimeric sites, ends assumed
Oligonucleotide,bound/input enrichment [ratio]
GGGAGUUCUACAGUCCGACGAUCGACCCACAGUGGUCUGAGGAGCAACUCAUUGCUGCAAAAUUCUGUUUUGCUGGCCUUGUUAUAGGGCAGACUGAAGUGGACAUCAUGAGUCAUGCCACACAAGCUAUAUUUGAAAUACUGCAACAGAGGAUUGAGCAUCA,0.2
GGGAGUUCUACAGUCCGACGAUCCUCAUGGCUGCAGAAACAGGAAGUGGAAAAACUGGUGCUUUUAGUAUUCCCGUUAUCCAGAUAGUGUAUGAAACUCUGAAAGACCAACAGGAAGGAAAAAAAGGAAAAACAACUAUUAAACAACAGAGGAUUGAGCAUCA,0.85
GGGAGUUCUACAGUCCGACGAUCCCCCAAUACCAUUUGCAGGUCUGGAACUGCACUCUCUUUAAAGUUUUACAUGUAUACAUUUUAGGGCUGUAGACUUAUUUUCCUGGUUUUGUUUUUCAUUGCUGACUUUUGAGCACAGAACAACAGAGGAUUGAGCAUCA,1.8
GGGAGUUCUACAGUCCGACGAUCGCCACCAGAUCCCAGAAACAUGACUCUUGCUGCCUACAAAGAGAAGAUGAAGGAGCUCCCGCUGGUGUCCUUGUUCUGCUCCUGCUUCCUGGCCGAUCCCCUGAAUAAGUCGUCCUACAACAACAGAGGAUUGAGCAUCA,0.299
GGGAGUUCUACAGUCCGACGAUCUCUUAACUUAUUCAUUUAACUUAUUUUUAUAGCUAGAGCAAUAUUGUUAGUCUUAGACAAUAGCUCACAUUUUUUGAAAAGCAUGCUCUCCCUGUCCAUUUGUCUUAUAACAUGACCCAGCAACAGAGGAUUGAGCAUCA,286
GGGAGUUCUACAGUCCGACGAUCCUGAGGAUACCACUGAAGAGACCUUAAAAGGAGUCAUUGAGGGCUCUGUUCGUGCAAGAAUAGUCACCUGACCGGGAACUGGUUCUUCCAAAGGGUUUGGUUUUGUAGACUUUAAUAGUGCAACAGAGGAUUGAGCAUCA,0.827
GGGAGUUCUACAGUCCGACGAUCUUCAAAGAAAAGGGCAGUUCAUAAAUAUCAUAAGUAACUCUGGGGGAGGGAAAUUCUAACUAGUUUGUUAAUUUUCCCCCAAAUGAAGCCAAAGUGUGUGUUGAAGAACUGAGAAAAAAUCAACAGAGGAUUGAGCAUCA,1.53
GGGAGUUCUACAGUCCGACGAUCACAGUUAUACACUGUUGUUUCAUUUUCAUAUAUUCUUGUAGUGUCUGCUUGCCUGUGUCUUUUAGUAAAAUAAAAUAAGCCUUUGAAAAUAUUUUAGCAUGGUAUUUAACAUUUUCUAAACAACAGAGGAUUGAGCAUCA,2.74
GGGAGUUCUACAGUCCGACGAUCGAACCUGUUGCUGAUGAUGAAGAUGAGGAAGACAAUGAUGAUGUUGAACCCAUUUCUGAAUUUCGAUUUGUGCCCAGUGAUAAGUCAGCAUUGGAGGCGAUGUUCACAGCAAUGUGUGAGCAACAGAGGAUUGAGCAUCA,0.326
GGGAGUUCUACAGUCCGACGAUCUAUAAUAAUCAUGAAAUUCGUUCUGGAAAACAUAUUGGUGUCUGCAUCUCAGUUGCCAACAAUAGGCUUUUUGUGGGCUCGAUUCCUAAGAGUAAAACCAAGGAGCAGAUUCUUGAGGAACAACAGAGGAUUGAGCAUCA,2.33
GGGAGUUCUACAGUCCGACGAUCUAAGUCCUGUGCCAGCACUUCGCUCAUAAAGUUUUAAAUUCUGGACCAAUAGUGUUUAUCUUUAGAAUAUUGUAUCCAAUACUUUAUCUAGUAUGUAACUCACUCUUACUGAUAAUAAAACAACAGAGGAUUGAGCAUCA,5.44

# Sample 4 — target: CCNA2, cyclin fold, Cln2 fusion (human); technique: yeast growth competition, sequencing; matrix: yeast; notes: strong parent motif; relative to: not given; reading: higher = stronger binding
# Parent: CDKN1A docking peptide (human); SKACRRLFGPVDS; partner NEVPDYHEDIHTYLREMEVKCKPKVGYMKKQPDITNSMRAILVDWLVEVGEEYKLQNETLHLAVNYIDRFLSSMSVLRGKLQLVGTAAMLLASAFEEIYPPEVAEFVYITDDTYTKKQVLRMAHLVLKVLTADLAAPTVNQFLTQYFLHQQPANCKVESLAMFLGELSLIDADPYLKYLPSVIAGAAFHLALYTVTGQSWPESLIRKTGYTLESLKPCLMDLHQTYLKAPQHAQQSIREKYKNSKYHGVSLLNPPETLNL
Variant,normalised enrichment score
K2E,3.18
R5E,0.117
P10Q,5.29
C4H,4.24
F8L,0.541
F8N,-0.0331
R6M,4.9
A3E,0.304
D12R,4.78
R6L,2.4
R5Y,0.47
L7C,0.541
P10A,5.28
C4S,5.17
A3I,5.25
K2L,4.23
C4L,1.69

# A few entries again (sample 2):
Oligonucleotide,RBNS enrichment (R)
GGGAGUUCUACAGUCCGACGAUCGCCGCCCAUCCUCGGGGACUGUGAGUGUCCUUGUCUUAGUCAAAGCACAUCUCCUACCAAAAUUGCUCCCAAGAUGGAGGGUGAGACCUCAGUGCUAGGUUGACAGGUGGUGGAAUUCUCGGGUGCCAA,0.516
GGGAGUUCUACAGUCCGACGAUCCCUGCUUUUUGUUUUGGAUAGUACCUUGUCUGUAUAAGAAGCUGGCCUUUCCAUAGAGAGGCCCUGGAGUCUAAAAUUAUGAGAACAAUUAAUUUAUUUGUGUCUUCUAUUGGAAUUCUCGGGUGCCAA,0.303
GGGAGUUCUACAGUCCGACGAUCCUUUUUGAAGAUUAGGUGGUUUUGCUCUUUAACAUUUUUGUGACUUUGGUUUAUUUUCUUCCCAUGUCGCCCAGAGAUUACUUGUGUGUGUGCCAUUCUGCUCAAAACUAUGGAAUUCUCGGGUGCCAA,0.33
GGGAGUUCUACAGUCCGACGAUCUUGGGACCACCCGUAUUUCAGUAGGACCUGGGUAGGGAUUGGAAGUACUUGGCAGGGCAGCAGCAAUCUUGCUGUGUUUGAUAUAACAUGCAUCCUUGGGCAGGUUGCCCUGGAAUUCUCGGGUGCCAA,0.531
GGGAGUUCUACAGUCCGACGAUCACUUCACUGUCCCUGAUAUCUGGAGGUGAGAUGGCAGAGAGGGGCACCAGUGGAGCCAGGAUUGGGGCCUAGGGAAGCCCCCAAUGGUUCUGGAGGCAGGGAUAAGUGUGUGGAAUUCUCGGGUGCCAA,0.814
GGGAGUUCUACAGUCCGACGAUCAAUACAUAUCUAUGUCUCAUAAAAAUUAGAAUGUACUAUUUUAAAAUAAUAUGUGUAAAUUGAAAUUUUUUUCAUUUUUAAGUUAUCAGGCACUUUUCAUGCUGUUUAAAUGGAAUUCUCGGGUGCCAA,1.46
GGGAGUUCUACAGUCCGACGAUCGGUUCUUCCUGUGUGGUCCAGAACCACGAGCCUGGUAAAGGAACUAUGCAAACACAGGCCCUGACCUCCCCAUGUCUGUUCCUGGUCCUCACAGCCCGACACGCCCUGCUUGGAAUUCUCGGGUGCCAA,0.449
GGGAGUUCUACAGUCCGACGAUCCUCUCUUGGGGUUCCACACCCAUUUCUUGCCAGCAGCUCCCAGUGAUGCUGUGUUUUGUAUGUUAGUUACACAACUUUGUGUCCUGCCAGGUCAUGUUCUAAAAUUAAGGUGGAAUUCUCGGGUGCCAA,0.581
